{"data": "Assay results gathered from unrelated publications", "note": "Every numbered part comes from another study and shows a few of its results, in no order. “And” joins repeats or separate records; there may be more than shown.", "UniProt P35916, sequence (whole entry, unmodified, looked up)": "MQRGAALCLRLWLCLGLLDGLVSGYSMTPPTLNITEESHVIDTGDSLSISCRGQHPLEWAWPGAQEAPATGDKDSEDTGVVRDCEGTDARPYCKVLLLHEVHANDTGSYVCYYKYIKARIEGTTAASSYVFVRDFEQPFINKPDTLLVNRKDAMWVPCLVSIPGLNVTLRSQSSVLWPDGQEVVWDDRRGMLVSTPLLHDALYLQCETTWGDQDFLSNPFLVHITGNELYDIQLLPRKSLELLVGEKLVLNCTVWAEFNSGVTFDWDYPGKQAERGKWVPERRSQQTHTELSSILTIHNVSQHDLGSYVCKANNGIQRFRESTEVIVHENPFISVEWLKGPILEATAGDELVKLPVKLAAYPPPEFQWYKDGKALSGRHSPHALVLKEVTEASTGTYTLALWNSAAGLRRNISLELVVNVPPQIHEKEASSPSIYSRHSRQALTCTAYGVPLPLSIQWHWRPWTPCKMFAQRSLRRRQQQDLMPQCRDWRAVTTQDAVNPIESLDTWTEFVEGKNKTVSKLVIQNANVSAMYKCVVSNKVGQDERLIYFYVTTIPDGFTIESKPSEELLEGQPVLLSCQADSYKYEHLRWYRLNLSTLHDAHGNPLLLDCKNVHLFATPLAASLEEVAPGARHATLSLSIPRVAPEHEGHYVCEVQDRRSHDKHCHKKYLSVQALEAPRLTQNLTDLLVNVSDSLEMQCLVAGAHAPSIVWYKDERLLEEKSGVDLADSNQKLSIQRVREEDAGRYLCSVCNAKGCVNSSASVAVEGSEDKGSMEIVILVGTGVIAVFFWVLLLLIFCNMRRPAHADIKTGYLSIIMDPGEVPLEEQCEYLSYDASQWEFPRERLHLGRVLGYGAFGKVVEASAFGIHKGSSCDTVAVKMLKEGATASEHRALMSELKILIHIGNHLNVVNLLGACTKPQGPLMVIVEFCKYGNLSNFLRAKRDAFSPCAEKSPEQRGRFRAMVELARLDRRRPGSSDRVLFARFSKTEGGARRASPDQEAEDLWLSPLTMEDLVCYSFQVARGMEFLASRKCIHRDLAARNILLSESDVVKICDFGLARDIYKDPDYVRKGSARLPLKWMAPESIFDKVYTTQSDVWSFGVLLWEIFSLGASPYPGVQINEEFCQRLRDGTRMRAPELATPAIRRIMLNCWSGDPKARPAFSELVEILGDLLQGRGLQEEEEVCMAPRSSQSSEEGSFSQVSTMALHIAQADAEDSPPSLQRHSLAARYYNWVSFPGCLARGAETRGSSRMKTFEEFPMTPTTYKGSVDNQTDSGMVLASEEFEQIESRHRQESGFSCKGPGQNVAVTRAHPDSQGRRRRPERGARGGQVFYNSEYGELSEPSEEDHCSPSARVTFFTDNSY", "UniProt O14965, sequence (whole entry, looked up)": "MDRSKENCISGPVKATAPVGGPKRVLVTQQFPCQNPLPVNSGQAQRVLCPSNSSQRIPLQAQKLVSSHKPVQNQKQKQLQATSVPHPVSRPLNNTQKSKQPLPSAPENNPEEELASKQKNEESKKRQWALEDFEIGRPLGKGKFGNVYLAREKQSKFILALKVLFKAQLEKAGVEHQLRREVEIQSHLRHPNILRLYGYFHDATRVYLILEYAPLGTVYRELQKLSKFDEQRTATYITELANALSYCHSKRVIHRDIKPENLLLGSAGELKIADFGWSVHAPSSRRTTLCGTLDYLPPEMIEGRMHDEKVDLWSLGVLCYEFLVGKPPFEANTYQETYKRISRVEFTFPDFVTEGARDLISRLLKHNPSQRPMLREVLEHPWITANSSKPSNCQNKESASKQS", "UniProt O43187, sequence (whole entry, looked up)": "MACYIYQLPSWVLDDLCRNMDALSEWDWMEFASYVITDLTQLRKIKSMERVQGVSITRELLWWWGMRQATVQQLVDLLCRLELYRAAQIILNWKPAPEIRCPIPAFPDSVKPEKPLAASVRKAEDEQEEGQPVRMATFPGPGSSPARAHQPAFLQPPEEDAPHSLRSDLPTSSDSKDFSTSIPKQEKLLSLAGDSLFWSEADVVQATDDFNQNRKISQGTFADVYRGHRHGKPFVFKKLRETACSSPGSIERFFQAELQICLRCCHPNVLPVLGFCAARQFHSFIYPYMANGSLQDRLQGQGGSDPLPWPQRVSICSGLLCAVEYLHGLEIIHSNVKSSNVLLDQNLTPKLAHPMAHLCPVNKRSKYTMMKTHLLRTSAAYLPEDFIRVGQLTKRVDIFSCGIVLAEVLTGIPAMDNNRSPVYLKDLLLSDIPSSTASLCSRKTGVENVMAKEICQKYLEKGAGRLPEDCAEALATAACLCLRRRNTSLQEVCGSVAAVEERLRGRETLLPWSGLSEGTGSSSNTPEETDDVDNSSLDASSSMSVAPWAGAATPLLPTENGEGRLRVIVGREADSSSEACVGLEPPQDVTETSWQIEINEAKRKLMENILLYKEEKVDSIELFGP", "UniProt P15056, sequence (whole entry, unmodified, looked up)": "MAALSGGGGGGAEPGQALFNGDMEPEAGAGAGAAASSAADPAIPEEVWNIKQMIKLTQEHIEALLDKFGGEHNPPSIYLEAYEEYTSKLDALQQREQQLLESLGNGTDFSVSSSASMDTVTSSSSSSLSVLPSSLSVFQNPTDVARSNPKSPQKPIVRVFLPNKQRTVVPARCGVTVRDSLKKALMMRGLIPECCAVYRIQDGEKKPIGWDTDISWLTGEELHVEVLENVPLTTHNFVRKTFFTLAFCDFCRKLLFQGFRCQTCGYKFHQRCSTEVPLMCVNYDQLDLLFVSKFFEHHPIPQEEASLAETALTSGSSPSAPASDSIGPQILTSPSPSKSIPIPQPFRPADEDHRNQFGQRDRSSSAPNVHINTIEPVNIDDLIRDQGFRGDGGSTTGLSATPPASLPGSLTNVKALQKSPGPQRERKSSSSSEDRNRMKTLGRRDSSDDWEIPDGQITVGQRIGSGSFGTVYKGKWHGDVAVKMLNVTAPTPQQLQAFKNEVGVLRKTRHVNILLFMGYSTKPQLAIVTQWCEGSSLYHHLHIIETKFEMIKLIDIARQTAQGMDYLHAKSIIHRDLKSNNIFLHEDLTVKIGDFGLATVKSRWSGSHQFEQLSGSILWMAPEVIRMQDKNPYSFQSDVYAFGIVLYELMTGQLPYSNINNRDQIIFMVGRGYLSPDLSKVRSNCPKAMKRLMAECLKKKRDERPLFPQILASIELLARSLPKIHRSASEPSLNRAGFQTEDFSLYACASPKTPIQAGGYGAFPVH", "UniProt P36897, sequence (whole entry, unmodified, looked up)": "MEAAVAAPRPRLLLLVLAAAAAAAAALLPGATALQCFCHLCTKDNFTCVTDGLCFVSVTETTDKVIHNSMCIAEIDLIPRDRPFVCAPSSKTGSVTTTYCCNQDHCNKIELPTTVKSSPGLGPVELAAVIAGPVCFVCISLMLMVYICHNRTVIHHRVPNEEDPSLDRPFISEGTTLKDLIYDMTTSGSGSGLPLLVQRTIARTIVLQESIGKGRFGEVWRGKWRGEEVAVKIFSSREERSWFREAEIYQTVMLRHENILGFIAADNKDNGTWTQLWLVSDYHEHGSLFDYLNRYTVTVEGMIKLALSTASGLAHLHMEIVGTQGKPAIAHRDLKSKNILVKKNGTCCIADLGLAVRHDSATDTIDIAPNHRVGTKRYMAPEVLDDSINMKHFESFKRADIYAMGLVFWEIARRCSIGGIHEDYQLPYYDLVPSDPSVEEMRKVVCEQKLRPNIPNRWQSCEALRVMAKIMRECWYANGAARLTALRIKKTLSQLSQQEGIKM"}
{"data": "Study 1", "SMILES": "COc1cc(/C=C(\\C#N)C(=O)c2ccc(O)c(O)c2)cc(I)c1O", "mode": "inhibitor", "concentration": "5 µM"}
{"target": "AKT1 (Homo sapiens, UniProt P31749)", "assay": "cell-based kinome profiling", "system": "human cells", "how to read": "reference: vehicle control", "log2 fold change": 0.479}
{"target": "FGFR1 (Homo sapiens, UniProt P11362)", "assay": "cell-based translocation", "system": "human cells", "how to read": "reference: vehicle", "log2 fold change": -0.1}
{"target": "FLT4 (Homo sapiens, UniProt P35916, L1044P)", "assay": "cell-based translocation", "system": "human cells", "conditions": "hereditary lymphedema type 1A variant", "how to read": "reference: vehicle", "log2 fold change": 1.03}
{"target": "EGFR (Homo sapiens, UniProt P00533, L858R/T790M)", "system": "human cells", "how to read": "reference: vehicle", "log2 fold change": -0.083}
{"target": "FLT4 (Homo sapiens, UniProt P35916, P1114L)", "assay": "cell-based translocation", "system": "human cells", "conditions": "hereditary lymphedema type 1A variant", "how to read": "reference: vehicle", "log2 fold change": 0.921}
{"target": "Ephrin type-B receptor 1, with CDC37 (EPHB1, Homo sapiens, UniProt P54762)", "assay": "cell-based kinome screen", "system": "human cells", "how to read": "reference: vehicle", "log2 fold change": 0.308}
{"target": "IRAK2 (Homo sapiens, UniProt O43187)", "assay": "cell-based kinome screen", "system": "human cells", "how to read": "reference: vehicle", "log2 fold change": 0.63}
{"target": "BLK (Homo sapiens, UniProt P51451)", "assay": "cell-based kinome profiling", "system": "human cells", "how to read": "reference: vehicle control", "log2 fold change": 0.302}
{"target": "FLT4 (Homo sapiens, UniProt P35916, H1035R)", "assay": "cell-based translocation", "system": "human cells", "conditions": "hereditary lymphedema type 1A variant", "how to read": "reference: vehicle", "log2 fold change": 0.568}
{"target": "TGFBR1 (Homo sapiens, UniProt P36897, D400G)", "assay": "kinase activity", "conditions": "cell-based kinome screen", "how to read": "reference: vehicle", "log2 fold change": 0.067}
{"target": "BRAF (Homo sapiens, UniProt P15056, G466A)", "assay": "cell-based kinome profiling", "system": "human cells", "how to read": "reference: vehicle control", "log2 fold change": -0.026}
{"target": "RET (Homo sapiens, UniProt P07949)", "assay": "kinase-CDC37 interaction", "system": "human cells", "how to read": "reference: vehicle", "log2 fold change": 0.084}
{"target": "kinase–CDC37 interaction", "assay": "kinase–CDC37 binding", "system": "human cells", "conditions": "oncogenic MSN-ALK fusion", "how to read": "reference: vehicle", "log2 fold change": -0.075}
{"target": "kinase–CDC37 interaction", "assay": "kinase–CDC37 binding", "system": "human cells", "conditions": "oncogenic FCHSD1-BRAF fusion", "how to read": "reference: vehicle", "log2 fold change": -0.015}
{"data": "Study 2", "target": "Cyclin-dependent kinase 1, with cyclin B (CDK1, Homo sapiens, UniProt P06493)", "observed": "enzyme activity", "mode": "inhibitor", "concentration": "0.5 µM", "reference": "control", "UniProt P06493, sequence (whole entry, looked up)": "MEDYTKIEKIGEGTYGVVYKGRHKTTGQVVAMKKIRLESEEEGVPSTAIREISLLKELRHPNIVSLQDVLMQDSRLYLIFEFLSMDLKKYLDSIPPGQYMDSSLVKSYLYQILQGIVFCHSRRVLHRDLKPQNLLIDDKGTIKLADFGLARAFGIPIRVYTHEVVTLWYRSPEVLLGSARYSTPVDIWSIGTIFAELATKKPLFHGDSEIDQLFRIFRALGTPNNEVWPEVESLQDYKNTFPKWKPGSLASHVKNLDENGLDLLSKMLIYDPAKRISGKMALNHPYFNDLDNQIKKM"}
{"SMILES": "CCOC(=O)c1c(C)[nH]c(/C=C2\\C(=O)Nc3ccccc32)c1C", "remaining activity [%]": 100}
{"SMILES": "Oc1ccc(-c2nc(-c3ccncc3)c(-c3ccc(F)cc3)[nH]2)cc1", "remaining activity [%]": 99}
{"SMILES": "Cc1ccc(NC(=O)c2ccc(CN3CCN(C)CC3)cc2)cc1Nc1nc(-c2cccnc2)cs1", "remaining activity [%]": 97.6}
{"SMILES": "Nc1[nH]nc2nc3ccccc3nc12", "remaining activity [%]": 79.6}
{"SMILES": "Cc1cccc(-c2[nH]c(C(C)(C)C)nc2-c2ccc3c(c2)OCO3)n1", "remaining activity [%]": 100}
{"SMILES": "NCCNc1ncc(C(N)=O)c(Nc2cccc(C(F)(F)F)c2)n1", "remaining activity [%]": 81.7}
{"SMILES": "CO[C@H]1C[C@@H]2CC[C@@H](C)[C@@](O)(O2)C(=O)C(=O)N2CCCC[C@H]2C(=O)O[C@H]([C@H](C)C[C@@H]2CC[C@@H](O)[C@H](OC)C2)CC(=O)[C@H](C)/C=C(\\C)[C@@H](O)[C@@H](OC)C(=O)[C@H](C)C[C@H](C)/C=C/C=C/C=C/1C", "remaining activity [%]": 103}
{"SMILES": "O=C(O)c1ccc2c3c1cccc3c(=O)n1c3ccccc3nc21", "remaining activity [%]": 65}
{"SMILES": "OCC(O)CCON=C1C(c2c(O)[nH]c3ccccc23)=Nc2ccccc21 (stereo not drawn)", "remaining activity [%]": 33.4}
{"SMILES": "COc1cc2ncnc(Nc3ccc(F)c(Cl)c3)c2cc1OCCCN1CCOCC1", "remaining activity [%]": 99.1}
{"SMILES": "Nc1ccc2ncnc(NCCc3ccc(Oc4ccccc4)cc3)c2c1", "remaining activity [%]": 96.3}
{"SMILES": "O=C(CCCc1ccc(-c2ccccc2F)cc1)Nc1ccc(O)cc1", "remaining activity [%]": 102}
{"SMILES": "COc1cc2ncnc(Nc3ccc(Oc4ccccc4)cc3)c2cc1OC", "remaining activity [%]": 81.2}
{"SMILES": "O=S(=O)(c1cccc2cnccc12)N1CCCNCC1", "remaining activity [%]": 92.7}
{"SMILES": "C#Cc1cccc(Nc2ncnc3cc(OCCOC)c(OCCOC)cc23)c1", "remaining activity [%]": 97.2}
{"SMILES": "Nc1ncnc2n[nH]c(Nc3ccc(F)cc3)c12", "remaining activity [%]": 90.7}
{"data": "Study 3", "Structure (SMILES)": "C=CCc1ccc(O)c(-c2ccc(O)c(CC=C)c2)c1", "target": "Anoctamin-1 (ANO1, Homo sapiens, UniProt Q5XXA6, del476-501)", "observed": "chloride current", "technique": "whole-cell patch clamp", "UniProt Q5XXA6, sequence (whole entry, unmodified, looked up)": "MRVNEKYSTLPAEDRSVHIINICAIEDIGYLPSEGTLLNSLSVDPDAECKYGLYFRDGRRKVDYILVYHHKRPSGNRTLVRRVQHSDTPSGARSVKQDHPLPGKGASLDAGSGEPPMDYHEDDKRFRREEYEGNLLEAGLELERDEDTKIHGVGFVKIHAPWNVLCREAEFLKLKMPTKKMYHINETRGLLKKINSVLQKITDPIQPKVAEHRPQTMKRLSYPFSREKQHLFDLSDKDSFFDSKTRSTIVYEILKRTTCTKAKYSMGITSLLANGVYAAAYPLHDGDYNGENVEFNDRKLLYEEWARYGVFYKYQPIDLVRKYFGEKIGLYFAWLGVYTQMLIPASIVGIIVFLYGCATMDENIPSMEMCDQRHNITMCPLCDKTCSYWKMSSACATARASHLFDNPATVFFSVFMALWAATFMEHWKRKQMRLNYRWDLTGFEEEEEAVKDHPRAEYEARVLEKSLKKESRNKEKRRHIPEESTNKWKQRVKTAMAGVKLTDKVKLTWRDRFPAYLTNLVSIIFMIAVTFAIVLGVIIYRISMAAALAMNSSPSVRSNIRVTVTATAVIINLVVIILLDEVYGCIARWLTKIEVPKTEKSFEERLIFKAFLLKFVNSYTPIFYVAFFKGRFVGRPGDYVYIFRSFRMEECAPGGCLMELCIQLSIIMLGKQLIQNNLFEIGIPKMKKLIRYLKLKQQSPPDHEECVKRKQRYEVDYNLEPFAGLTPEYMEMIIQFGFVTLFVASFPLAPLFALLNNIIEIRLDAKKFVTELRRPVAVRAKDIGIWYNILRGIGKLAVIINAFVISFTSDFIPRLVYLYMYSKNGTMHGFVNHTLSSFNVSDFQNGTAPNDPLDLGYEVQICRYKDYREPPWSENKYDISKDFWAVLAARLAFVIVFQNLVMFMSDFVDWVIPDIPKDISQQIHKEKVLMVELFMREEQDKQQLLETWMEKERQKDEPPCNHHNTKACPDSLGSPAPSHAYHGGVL"}
{"concentration": "100 µM", "notes": "20 mV, 300 nM free Ca2+", "normalised current": "0.0055 and 0.0058"}
{"concentration": "10 µM", "notes": "20 mV, 300 nM free Ca2+", "normalised current": "0.0212 and 0.0202"}
{"concentration": "1 µM", "notes": "20 mV, 300 nM free Ca2+", "normalised current": "0.102 and 0.0971"}
{"concentration": "1 µM", "notes": "80 mV, 300 nM free Ca2+", "normalised current": "0.649 and 0.681"}
{"concentration": "1 µM", "notes": "40 mV, 300 nM free Ca2+", "normalised current": "0.235 and 0.247"}
{"concentration": "30 µM", "notes": "60 mV, 300 nM free Ca2+", "added": "honokiol and magnolol 10 µM", "normalised current": 0.0347}
{"concentration": "3 µM", "notes": "40 mV, 300 nM free Ca2+", "normalised current": "0.139 and 0.133"}
{"data": "Study 4", "SMILES": "O=C(NCCCC1CCCCC1)c1ccc(CNC(=O)c2cnn(-c3ccccc3)c2C(F)(F)F)cc1", "observed": "cell-free assay", "technique": "competition with immobilised ligand", "concentration": "0.1 µM"}
{"target": "PRKD3 (Homo sapiens, UniProt O94806)", "remaining binding [%]": 99}
{"target": "SRC (Homo sapiens, UniProt P12931)", "remaining binding [%]": 100}
{"target": "BRSK1 (Homo sapiens, UniProt Q8TDC3)", "remaining binding [%]": 100}
{"target": "CDK14 (Homo sapiens, UniProt O94921)", "remaining binding [%]": 100}
{"target": "MAP3K3 (Homo sapiens, UniProt Q99759)", "remaining binding [%]": 100}
{"target": "IRAK1 (Homo sapiens, UniProt P51617)", "remaining binding [%]": 100}
{"target": "CDK8 (Homo sapiens, UniProt P49336)", "remaining binding [%]": 97}
{"target": "WNK4 (Homo sapiens, UniProt Q96J92)", "remaining binding [%]": 100}
{"target": "Aurora kinase A (AURKA, Homo sapiens, UniProt O14965)", "remaining binding [%]": 100}
{"target": "SLK (Homo sapiens, UniProt Q9H2G2)", "remaining binding [%]": 100}
{"target": "EGFR (Homo sapiens, UniProt P00533, L858R)", "remaining binding [%]": 100}
{"note": "A few entries again (study 4):"}
{"target": "CDK8 (Homo sapiens, UniProt P49336)", "remaining binding [%]": 97}
{"target": "WNK4 (Homo sapiens, UniProt Q96J92)", "remaining binding [%]": 100}
{"target": "Aurora kinase A (AURKA, Homo sapiens, UniProt O14965)", "remaining binding [%]": 100}
{"target": "SLK (Homo sapiens, UniProt Q9H2G2)", "remaining binding [%]": 100}
